Assay results collected from several papers.
Compare with care: the assays were run in different laboratories. ± gives the spread as reported.
pufM QA site: Reaction center protein M chain, QA site (pufM, Cereibacter sphaeroides, UniProt P0C0Y9)
ISOC2: Isochorismatase domain-containing protein 2 (ISOC2, Homo sapiens, UniProt Q96AB3)
Sequence of UniProt Q96AB3 (whole entry, looked up): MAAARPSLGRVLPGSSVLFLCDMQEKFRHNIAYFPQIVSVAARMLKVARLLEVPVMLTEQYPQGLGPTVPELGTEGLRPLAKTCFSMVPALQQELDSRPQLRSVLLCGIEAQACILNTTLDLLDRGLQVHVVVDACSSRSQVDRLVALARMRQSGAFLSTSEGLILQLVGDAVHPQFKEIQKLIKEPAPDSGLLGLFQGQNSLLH
Sequence of UniProt P00370 (whole entry, looked up): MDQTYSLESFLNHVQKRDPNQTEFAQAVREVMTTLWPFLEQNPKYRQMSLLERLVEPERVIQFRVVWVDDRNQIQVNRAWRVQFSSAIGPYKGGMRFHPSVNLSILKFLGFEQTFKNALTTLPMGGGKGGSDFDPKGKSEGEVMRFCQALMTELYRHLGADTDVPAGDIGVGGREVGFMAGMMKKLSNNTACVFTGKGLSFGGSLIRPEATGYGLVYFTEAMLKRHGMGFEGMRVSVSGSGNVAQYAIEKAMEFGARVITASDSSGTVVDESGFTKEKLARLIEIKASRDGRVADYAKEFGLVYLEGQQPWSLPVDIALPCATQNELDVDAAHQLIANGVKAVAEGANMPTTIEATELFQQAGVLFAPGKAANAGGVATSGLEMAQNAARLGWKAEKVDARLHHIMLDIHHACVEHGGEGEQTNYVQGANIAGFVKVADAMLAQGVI
Sequence of UniProt P70536 (whole entry, looked up): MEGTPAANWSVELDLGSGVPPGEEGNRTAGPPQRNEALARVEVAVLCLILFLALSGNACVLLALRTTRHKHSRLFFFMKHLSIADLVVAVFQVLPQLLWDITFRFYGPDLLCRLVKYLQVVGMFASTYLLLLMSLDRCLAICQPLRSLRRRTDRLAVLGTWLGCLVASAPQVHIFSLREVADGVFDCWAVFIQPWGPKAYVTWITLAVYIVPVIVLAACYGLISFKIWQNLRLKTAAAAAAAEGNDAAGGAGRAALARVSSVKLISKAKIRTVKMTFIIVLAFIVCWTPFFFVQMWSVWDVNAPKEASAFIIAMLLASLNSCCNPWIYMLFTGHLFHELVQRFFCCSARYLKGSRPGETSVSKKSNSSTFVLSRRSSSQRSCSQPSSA
Sequence of UniProt O60563 (whole entry, looked up): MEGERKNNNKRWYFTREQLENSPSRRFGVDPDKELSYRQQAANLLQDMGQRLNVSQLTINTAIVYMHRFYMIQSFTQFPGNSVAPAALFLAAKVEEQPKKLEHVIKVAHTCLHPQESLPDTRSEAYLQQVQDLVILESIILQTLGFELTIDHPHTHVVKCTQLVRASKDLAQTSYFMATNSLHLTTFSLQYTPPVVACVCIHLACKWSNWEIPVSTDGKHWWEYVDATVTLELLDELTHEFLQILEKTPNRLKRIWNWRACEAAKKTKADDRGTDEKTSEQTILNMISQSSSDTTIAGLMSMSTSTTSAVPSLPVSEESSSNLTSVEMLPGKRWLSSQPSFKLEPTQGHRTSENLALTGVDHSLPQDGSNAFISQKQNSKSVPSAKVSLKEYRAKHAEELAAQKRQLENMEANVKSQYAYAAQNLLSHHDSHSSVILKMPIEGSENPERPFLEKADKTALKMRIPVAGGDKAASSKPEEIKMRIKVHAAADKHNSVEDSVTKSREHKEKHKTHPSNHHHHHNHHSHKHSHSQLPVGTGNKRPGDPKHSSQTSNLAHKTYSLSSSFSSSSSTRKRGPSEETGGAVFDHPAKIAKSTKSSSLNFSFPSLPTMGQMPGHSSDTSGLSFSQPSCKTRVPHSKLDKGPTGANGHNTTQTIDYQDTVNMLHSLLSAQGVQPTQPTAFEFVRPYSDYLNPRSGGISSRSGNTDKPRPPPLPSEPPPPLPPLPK
Sequence of UniProt P40337 (whole entry, looked up): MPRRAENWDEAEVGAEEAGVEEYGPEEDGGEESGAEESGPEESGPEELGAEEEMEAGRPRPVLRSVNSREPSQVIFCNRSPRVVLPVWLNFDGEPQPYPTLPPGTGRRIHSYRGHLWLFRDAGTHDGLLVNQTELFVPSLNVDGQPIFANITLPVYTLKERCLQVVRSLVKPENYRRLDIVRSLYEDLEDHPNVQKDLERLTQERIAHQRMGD
Sequence of UniProt P07451 (whole entry, looked up): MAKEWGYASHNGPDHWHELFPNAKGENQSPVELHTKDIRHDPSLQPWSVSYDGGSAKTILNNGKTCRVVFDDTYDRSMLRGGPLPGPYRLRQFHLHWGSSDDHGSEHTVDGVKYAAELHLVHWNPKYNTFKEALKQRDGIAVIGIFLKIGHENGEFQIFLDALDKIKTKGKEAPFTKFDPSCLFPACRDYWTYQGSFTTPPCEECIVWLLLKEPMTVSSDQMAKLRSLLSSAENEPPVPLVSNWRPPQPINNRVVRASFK

Structure (SMILES) = CC1=CC(=O)C(C)=C(C)C1=O; target = pufM QA site; assay = QA site binding; system = LDAO detergent solution; setting = pH 7.8, 298 K, together with: 1 µM reaction centres; Kd = 16 µM
Structure (SMILES) = CCN(CC)Cc1ccc2cc(COC(=O)Nc3ccc(C(=O)NO)cc3)ccc2c1; target = ISOC2; assay = inhibitor, competition pulldown; system = SW620 and MV4-11 lysate; setting = 1 h; Kd = > 30.2 µM
Structure (SMILES) = Nc1nc(-c2ccc(Cl)c(S(N)(=O)=O)c2)cs1; target = Carbonic anhydrase 3 (CA3, Homo sapiens, UniProt P07451); assay = thermal shift; setting = pH 7.0, 25 °C; Kd = 100 µM
Structure (SMILES) = Nc1ncnc2c1ncn2[C@@H]1O[C@H](COP(=O)(O)OP(=O)(O)OP(=O)(O)O)[C@@H](O)[C@H]1O; target = Creatine kinase U-type, mitochondrial (CKMT1A, Homo sapiens, UniProt P12532, D359N); assay = microscale thermophoresis; setting = pH 8.5, D321N mutant, no substrate; Kd = 15 ± 6 µM
Structure (SMILES) = CN1CCc2c(c3ccccc3n2Cc2ccc(C(=O)NO)cc2)C1; target = ISOC2; assay = inhibitor, competition pulldown; system = SW620 and MV4-11 lysate; setting = 1 h; Kd = > 30.2 µM
Structure (SMILES) = CCCN1CCN(c2ccc(-c3cncc(Cl)c3N3CCC4(CCNC4=O)CC3)cc2)CC1; target = Cyclin-T1 (CCNT1, Homo sapiens, UniProt O60563); assay = SILAC displacement; system = LS174T-L5 cell lysate; Kd = 5.33 µM
Structure (SMILES) = Nc1nc2c(ncn2[C@@H]2O[C@H](COP(=O)(O)OP(=O)(O)O)[C@@H](OP(=O)(O)OP(=O)(O)O)[C@H]2O)c(=O)[nH]1; target = NADP-specific glutamate dehydrogenase (gdhA, Escherichia coli, UniProt P00370); assay = binding, ITC sequential two-site fit; setting = second weak site; Kd = 29 ± 2 µM
Structure (SMILES) = CCNCCCn1c2c(c3cc(OC)c(OC)cc3c1=O)C(=O)c1cc3c(nc1-2)OCO3; target = MYC G-quadruplex DNA; assay = binding, fluorescence; setting = pH 7.0, 20 °C, together with: K+ 100 mM; Kd = 0.055 µM
Structure (SMILES) = CC(=O)N[C@H](C(=O)N1C[C@H](O)C[C@H]1C(=O)NCc1ccc(-c2scnc2C)cc1)C(C)(C)SCCCCCCNC(=O)C[C@@H]1N=C(c2ccc(Cl)cc2)c2c(sc(C)c2C)-n2c(C)nnc21; target = von Hippel-Lindau disease tumor suppressor, with elongin B/C (VHL, Homo sapiens, UniProt P40337); assay = binary binding, ITC; setting = 25 °C, VCB titrated into compound; Kd = 0.335 ± 0.03 µM
Structure (SMILES) = C=CC(=O)N1CCN(c2nc(OC[C@@H]3CCCN3C)nc3c(F)c(-c4nc(N)cc(C)c4C(F)(F)F)c(Cl)cc23)[C@@H](C)C1; target = GTPase KRas, GDP-bound (KRAS, Homo sapiens, UniProt P01116, G13D); assay = binding, surface plasmon resonance; Kd = 0.715 ± 0.05 µM
Structure (SMILES) = CCCCOc1ccc(CC(=O)NO)cc1; target = ISOC2; assay = inhibitor, competition pulldown; system = SW620 and MV4-11 lysate; setting = 1 h; Kd = > 30.2 µM
Structure (SMILES) = O=[N+]([O-])c1ccc2nn[nH]c2c1; target = HG4 designed enzyme (HG3-Core); assay = stopped-flow tryptophan fluorescence; setting = pH 7, 20 °C; Kd = 34 ± 3 µM
Structure (SMILES) = CC1=CC(=O)C=C(C)C1=O; target = pufM QA site; assay = QA site binding; system = LDAO detergent solution; setting = pH 7.8, 298 K, together with: 1 µM reaction centres; Kd = 88 µM
Structure (SMILES) = C=C1CC[C@H](O)C/C1=C/C=C1\CCC[C@]2(C)[C@@H]([C@H](C)CCCC(C)C)CC[C@@H]12; target = CYP125 ancestral reconstruction; assay = UV-Vis difference spectra; setting = Morrison fit, fitted enzyme; Kd = 1.2 ± 0.8 µM
Structure (SMILES) = CC[C@H](C)[C@@H]1NC(=O)[C@H](Cc2ccc(O)cc2)NC(=O)[C@@H](N)CSSC[C@@H](C(=O)N2CCC[C@H]2C(=O)N[C@@H](CC(C)C)C(=O)NCC(N)=O)NC(=O)[C@H](CC(N)=O)NC(=O)[C@H](CCC(N)=O)NC1=O; target = Oxytocin receptor (Rattus norvegicus, UniProt P70536); assay = binding, saturation Scatchard; system = rat isolated mammary cells; setting = 1 h, pH 7.6, 20 °C; Kd = 0.005 µM
Structure (SMILES) = Cn1cc(-c2ccc(S(=O)(=O)n3ccc(/C=C/C(=O)Nc4ccccc4N)c3)cc2)cn1; target = ISOC2; assay = inhibitor, competition pulldown; system = SW620 and MV4-11 lysate; setting = 1 h; Kd = > 30.2 µM
Structure (SMILES) = COc1cc2c3c(n(CCCN4CCCC4)c(=O)c2cc1OC)-c1nc2c(cc1C3=O)OCO2; target = MYC G-quadruplex DNA; assay = binding, fluorescence; setting = pH 7.0, 20 °C, together with: K+ 100 mM; Kd = 0.055 µM
Structure (SMILES) = Nc1ccccc1NC(=O)c1ccc(CNC(=O)OCc2cccnc2)cc1; target = ISOC2; assay = inhibitor, competition pulldown; system = SW620 and MV4-11 lysate; setting = 1 h; Kd = > 30.2 µM
Structure (SMILES) = CC(C)CCC[C@@H](C)[C@H]1CC[C@H]2[C@@H]3CCC4=CC(=O)CC[C@]4(C)[C@H]3CC[C@]12C; target = CYP125 ancestral reconstruction; assay = UV-Vis difference spectra; setting = Michaelis-Menten fit; Kd = 0.6 ± 0.1 µM

Repeated from above:
Structure (SMILES) = CCCN1CCN(c2ccc(-c3cncc(Cl)c3N3CCC4(CCNC4=O)CC3)cc2)CC1; target = Cyclin-T1 (CCNT1, Homo sapiens, UniProt O60563); assay = SILAC displacement; system = LS174T-L5 cell lysate; Kd = 5.33 µM
Structure (SMILES) = Nc1nc2c(ncn2[C@@H]2O[C@H](COP(=O)(O)OP(=O)(O)O)[C@@H](OP(=O)(O)OP(=O)(O)O)[C@H]2O)c(=O)[nH]1; target = NADP-specific glutamate dehydrogenase (gdhA, Escherichia coli, UniProt P00370); assay = binding, ITC sequential two-site fit; setting = second weak site; Kd = 29 ± 2 µM
